Assay results from different studies.
Protocols differ between the studies behind these lines. “And” joins repeats or separate records; there may be more than shown. Numbers after ± are the reported error.
Cell line: A549

COc1ccc2nccc(Cc3cccc(-c4cnn(C)c4)c3)c2c1 gave an inhibition of 81% (mitochondrial oxygen consumption, Seahorse XF96; 10 µM).
With Nc1nc(N)c2nc(C(=O)NCc3ccccc3)cnc2n1 the cell growth was 125 ± 11.9% (CellTiter-Glo; 10 µM; 100 none, 0 cytostatic, -100 cytotoxic).
The depolarized cells of Cc1nc(N(Cc2ccccc2)c2ccc3c(c2)/C(=C/c2ccccc2)C(=O)N3Cc2ccccc2)c2ccccc2n1 (mixture of isomers) is reported as 53.4% (mitochondrial membrane potential, JC-1 flow cytometry; 0.6 µM).
CCN(Cc1cnc2nc(N)nc(N)c2n1)c1ccc(C(=O)N2CCC(C(=O)OC)CC2)cc1 has a cell growth of 135 ± 9.11% (CellTiter-Glo; 10 µM; 100 none, 0 cytostatic, -100 cytotoxic).
COc1cc2ccnc(Cc3ccc4cnn(C)c4c3)c2cc1OC gave an inhibition of 67% (mitochondrial oxygen consumption, Seahorse XF96; 10 µM).
With Nc1nc(N)c2nc(CNc3ccc(C(=O)NCCc4ccccc4)cc3)cnc2n1 the cell growth was 110 ± 18.7% (CellTiter-Glo; 10 µM; 100 none, 0 cytostatic, -100 cytotoxic).
The TGI of Cc1cc2c(cc1C)[n+](Cc1ccc3ccccc3c1)cn2Cc1ccc2ccccc2c1.[Br-] is reported as 2950 nM (NCI60 five-dose).
With Cc1cc(=O)[nH]c(=O)n1Cc1cn(-c2cc3ccccc3oc2=O)nn1 the growth was 98.1% (NCI60 single dose; 10 µM).
For COc1cc(C2=CCCc3c2ccc(OC)c3OC(C)(C)c2ccc([N+](=O)[O-])s2)cc(OC)c1OC, the IC50 was 300 ± 40 nM (cell growth, SRB; 4 h exposure then 120 h oxic, oxic exposure then drug removal).
With C=CCOc1c(C)c(O)c(C(=O)/C=C/c2ccccc2)c(OC)c1C the selectivity index was 0.86 (reference: CL over A549).
With COc1ccc2c(c1NC(=O)OC(C)c1ccc([N+](=O)[O-])s1)CCC=C2c1cc(OC)c(OC)c(OC)c1 (stereo not shown) the IC50 was 1420 ± 420 nM (4 h, anoxic).
With CCCc1n(Cc2ccc3ccccc3c2)c2ccccc2[n+]1Cc1ccc2ccccc2c1.[Br-] the TGI was 2040 nM (NCI60 five-dose).
COc1cc2ncnc(Cc3cccc4ccccc34)c2cc1OC has an inhibition of 41% (mitochondrial oxygen consumption, Seahorse XF96; 10 µM).
The GI50 of O=C(/C=C/C=C/C=C/C1CCCCC1)NC1=C[C@@](O)(/C=C/C=C/C=C/C(=O)NC2=C(O)CCC2=O)[C@@H]2O[C@@H]2C1=O is reported as over 30000 nM (cell growth, CellTiter-Glo; 78 h).
COc1c(C)c(OC(C)=O)c(C)c(OC(C)=O)c1C(=O)/C=C/c1ccccc1 has a selectivity index of 1.78 (reference: CL over A549).
ClCc1ccnc(-c2cc(CCl)ccn2)c1.F[P-](F)(F)(F)(F)F.[Ir+3].[c-]1ccccc1-c1ccccn1.[c-]1ccccc1-c1ccccn1 — result for “number of regulated genes”: 1220 (microarray; 3 µM, 24 h, fold change above 2).
With O=C(NOC[C@H](O)CO)c1ccc(F)c(F)c1Nc1ccc(I)cc1F the viability was 32.4% (10 µM, 72 h).
With Nc1nc(N)c2nc(C(=O)NCc3cccc(C(F)(F)F)c3)cnc2n1 the cell growth was 125 ± 6.54% (CellTiter-Glo; 10 µM; 100 none, 0 cytostatic, -100 cytotoxic).
The IC50 of Nc1n[n+]([O-])c2ccccc2[n+]1[O-] is reported as over 208000 nM (cell growth, SRB; 4 h exposure then 120 h oxic, oxic exposure then drug removal).
Cc1cc(NS(=O)(=O)c2ccc(NC(=O)/C(C#N)=C/c3ccc(N4CCOCC4)cc3)cc2)no1 has a selectivity index of over 1.83 (cytotoxicity, MTT; reference: HSF over A549 IC50).
The inhibition of COc1ccc2c(Cc3cccc(-c4ccccc4)c3)nccc2c1 is reported as 0% (mitochondrial oxygen consumption, Seahorse XF96; 10 µM).
CCCN1CCN(c2ccc3nc(-c4ccc5nc(-c6cc(OC)ccc6OC)[nH]c5c4)[nH]c3c2)CC1 gave a growth percent of 115% (SRB; 10 µM, 48 h).
For COc1ccc2ccnc(Cc3cccc(-c4ccccc4)c3)c2c1, the inhibition was 0% (mitochondrial oxygen consumption, Seahorse XF96; 10 µM).
[N-]=[N+]=NCCCNC(=O)CCCC[C@@H]1SC[C@@H]2NC(=O)N[C@@H]21 has an NAP-650 uptake of 57.2 and 54.8 and 52.5 (flow cytometry; 1 µM, unit not given, with: NAP-650 400 nM; reference: isotype control).
CCCCN1CCN(c2ccc3[nH]c(-c4ccc5[nH]c(-c6ccc(OCC)c(OCC)c6)nc5c4)nc3c2)CC1 has a growth percent of 37.7% (SRB; 10 µM, 48 h).
COc1cc(Oc2ccc(CNCc3cnc4nc(N)nc(N)c4n3)cc2)cc(OC)c1OC has a cell growth of 109 ± 10.4% (CellTiter-Glo; 10 µM; 100 none, 0 cytostatic, -100 cytotoxic).
For COc1ccc(Cc2nccc3ccc(C4COC4)cc23)cc1OC, the inhibition was 3% (mitochondrial oxygen consumption, Seahorse XF96; 10 µM).
CC(C)c1ccc(/C=C2\N=C(SCC(=O)O)N(c3ccccc3)C2=O)cc1 has a selectivity index of 1.3 (MTT; reference: BJ1 over A549).
For CCCC(CCC)C(=O)OCc1cn(-c2c3ccccc3nc3ccccc23)nn1, the growth was 99.4% (NCI60 single dose; 10 µM).
COc1ccc(OC)c(-c2nc3ccc(-c4nc5ccc(N6CCN(C)CC6)cc5[nH]4)cc3[nH]2)c1 has a growth percent of 109% (SRB; 10 µM, 48 h).
The 2-NBDG uptake of C/C(=N\O)c1ccc(-c2ccc(O)c(Cl)c2)c(Cl)c1O is reported as 38% (fluorescence imaging; 30 µM, with: 50 µM 2-NBDG, 15 min; reference: DMSO).
With Cn1cnc2c(F)c(Nc3ccc(Br)cc3F)c(C(=O)NOCCO)cc21 the viability was 75.9% (0.625 µM, 72 h).
COc1ccc2c(c1)NC(=O)CN2c1nc(C)nc2ccccc12: “cells in S phase” 21.5% (flow cytometry; 0.001 µM, 24 h).
COc1cc2nccc(Cc3cccc(-c4ccccc4)c3)c2cc1OC has an inhibition of 76% (mitochondrial oxygen consumption, Seahorse XF96; 10 µM).
COc1cc(C2=CCCc3c2ccc(OC)c3OCc2cnc([N+](=O)[O-])n2C)cc(OC)c1OC gave an IC50 of 640 ± 460 nM (4 h, anoxic).
The growth percent of CCCN1CCN(c2ccc3[nH]c(-c4ccc5[nH]c(-c6cc(OC)c(OC)c(OC)c6)nc5c4)nc3c2)CC1 is reported as 106% (SRB; 10 µM, 48 h).
With CCn1cc(-c2cc(Cn3ccnc3)cc3c2CCN([C@H](c2cc(OC)ccn2)C2CC2)C3=O)c(C(F)(F)F)n1 the EC50 was 13200 nM (cell growth, inhibitor; 120 h).
COc1cccc(Oc2ccccc2NC(=O)CNC(=O)c2cccc3ccccc23)c1 gave a GI50 of 316 nM (SRB; 48 h).
c1ccc2c(Cc3ccc4cn(C5COC5)nc4c3)nccc2c1 has an inhibition of 0% (mitochondrial oxygen consumption, Seahorse XF96; 10 µM).
The IC50 of COc1ccc2c(c1NC(=O)OCc1ccc([N+](=O)[O-])s1)CCC=C2c1cc(OC)c(OC)c(OC)c1 is reported as 6000 ± 4500 nM (4 h, anoxic).
